Results gathered from unrelated publications.
A part holds a random share of what one study measured.
UniProt Q99640, sequence (whole entry, looked up): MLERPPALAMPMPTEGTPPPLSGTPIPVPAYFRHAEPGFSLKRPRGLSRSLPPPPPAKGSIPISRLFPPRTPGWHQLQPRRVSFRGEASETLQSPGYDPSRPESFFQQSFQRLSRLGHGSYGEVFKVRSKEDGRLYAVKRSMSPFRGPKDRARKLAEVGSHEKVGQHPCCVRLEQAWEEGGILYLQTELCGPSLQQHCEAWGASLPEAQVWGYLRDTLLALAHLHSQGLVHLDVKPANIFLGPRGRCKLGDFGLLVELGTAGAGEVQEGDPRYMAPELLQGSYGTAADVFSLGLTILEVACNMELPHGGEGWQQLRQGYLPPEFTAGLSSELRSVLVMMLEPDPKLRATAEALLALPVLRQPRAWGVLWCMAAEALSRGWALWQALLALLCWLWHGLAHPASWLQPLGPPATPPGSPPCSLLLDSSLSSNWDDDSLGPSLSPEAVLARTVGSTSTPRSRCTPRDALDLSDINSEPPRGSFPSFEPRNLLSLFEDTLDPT
UniProt Q8NFD2, sequence (whole entry, looked up): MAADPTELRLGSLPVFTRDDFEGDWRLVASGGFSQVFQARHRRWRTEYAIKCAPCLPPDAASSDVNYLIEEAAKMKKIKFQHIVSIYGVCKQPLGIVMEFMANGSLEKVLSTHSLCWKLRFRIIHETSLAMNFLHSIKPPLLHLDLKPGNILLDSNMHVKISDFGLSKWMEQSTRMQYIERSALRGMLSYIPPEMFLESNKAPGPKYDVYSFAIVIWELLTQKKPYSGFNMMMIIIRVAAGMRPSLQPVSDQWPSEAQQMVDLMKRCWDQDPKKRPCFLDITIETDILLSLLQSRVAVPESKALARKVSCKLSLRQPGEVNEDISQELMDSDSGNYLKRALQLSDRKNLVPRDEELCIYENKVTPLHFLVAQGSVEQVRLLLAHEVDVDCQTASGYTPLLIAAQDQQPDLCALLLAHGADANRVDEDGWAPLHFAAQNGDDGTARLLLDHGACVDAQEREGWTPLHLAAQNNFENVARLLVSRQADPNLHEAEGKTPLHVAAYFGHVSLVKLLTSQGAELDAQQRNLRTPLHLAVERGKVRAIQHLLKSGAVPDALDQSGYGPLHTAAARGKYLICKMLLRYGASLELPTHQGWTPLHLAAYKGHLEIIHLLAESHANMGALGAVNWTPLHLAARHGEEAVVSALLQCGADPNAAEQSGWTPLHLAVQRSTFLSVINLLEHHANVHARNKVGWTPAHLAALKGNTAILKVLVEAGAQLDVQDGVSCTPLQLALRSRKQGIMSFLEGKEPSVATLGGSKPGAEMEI
UniProt Q6DT37, sequence (whole entry, looked up): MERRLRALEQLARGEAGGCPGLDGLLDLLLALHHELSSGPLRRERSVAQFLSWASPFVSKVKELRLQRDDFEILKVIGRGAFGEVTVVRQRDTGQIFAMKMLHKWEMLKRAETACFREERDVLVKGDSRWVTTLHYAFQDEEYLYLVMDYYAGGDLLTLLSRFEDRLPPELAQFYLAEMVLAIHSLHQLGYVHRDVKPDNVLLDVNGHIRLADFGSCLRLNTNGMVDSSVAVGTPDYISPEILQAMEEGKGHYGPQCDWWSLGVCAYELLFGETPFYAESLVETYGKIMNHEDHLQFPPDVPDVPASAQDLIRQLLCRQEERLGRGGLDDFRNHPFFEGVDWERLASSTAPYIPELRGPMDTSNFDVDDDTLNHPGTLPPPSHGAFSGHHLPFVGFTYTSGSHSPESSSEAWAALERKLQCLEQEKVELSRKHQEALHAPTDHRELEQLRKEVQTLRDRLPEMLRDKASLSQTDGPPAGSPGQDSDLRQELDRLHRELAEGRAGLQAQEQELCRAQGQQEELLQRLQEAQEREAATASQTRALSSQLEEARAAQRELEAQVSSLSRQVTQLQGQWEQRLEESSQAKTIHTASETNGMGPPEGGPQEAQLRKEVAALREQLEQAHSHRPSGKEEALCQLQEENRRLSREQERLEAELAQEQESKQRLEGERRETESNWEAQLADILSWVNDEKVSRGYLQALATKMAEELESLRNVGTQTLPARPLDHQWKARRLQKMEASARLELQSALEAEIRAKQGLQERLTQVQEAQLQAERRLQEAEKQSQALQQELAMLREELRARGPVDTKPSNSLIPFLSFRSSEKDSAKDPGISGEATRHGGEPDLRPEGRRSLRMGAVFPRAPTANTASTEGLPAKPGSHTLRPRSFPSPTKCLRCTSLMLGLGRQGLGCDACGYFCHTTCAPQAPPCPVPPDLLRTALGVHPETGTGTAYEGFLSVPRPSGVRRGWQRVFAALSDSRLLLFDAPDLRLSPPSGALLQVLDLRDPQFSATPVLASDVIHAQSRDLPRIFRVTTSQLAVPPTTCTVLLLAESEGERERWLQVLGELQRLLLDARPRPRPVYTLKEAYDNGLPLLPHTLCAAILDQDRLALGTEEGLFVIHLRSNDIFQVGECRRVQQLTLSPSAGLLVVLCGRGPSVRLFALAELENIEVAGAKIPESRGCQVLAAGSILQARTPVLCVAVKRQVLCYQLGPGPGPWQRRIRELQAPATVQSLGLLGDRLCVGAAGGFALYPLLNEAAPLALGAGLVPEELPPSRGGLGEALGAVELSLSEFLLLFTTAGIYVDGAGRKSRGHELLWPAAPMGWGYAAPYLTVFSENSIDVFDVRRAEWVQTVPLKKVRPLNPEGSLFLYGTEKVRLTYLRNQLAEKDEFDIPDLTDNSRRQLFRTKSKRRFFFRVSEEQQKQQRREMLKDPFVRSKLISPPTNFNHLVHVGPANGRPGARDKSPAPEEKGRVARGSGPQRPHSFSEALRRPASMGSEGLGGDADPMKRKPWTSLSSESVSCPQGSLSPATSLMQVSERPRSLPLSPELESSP
UniProt P48729, sequence (whole entry, looked up): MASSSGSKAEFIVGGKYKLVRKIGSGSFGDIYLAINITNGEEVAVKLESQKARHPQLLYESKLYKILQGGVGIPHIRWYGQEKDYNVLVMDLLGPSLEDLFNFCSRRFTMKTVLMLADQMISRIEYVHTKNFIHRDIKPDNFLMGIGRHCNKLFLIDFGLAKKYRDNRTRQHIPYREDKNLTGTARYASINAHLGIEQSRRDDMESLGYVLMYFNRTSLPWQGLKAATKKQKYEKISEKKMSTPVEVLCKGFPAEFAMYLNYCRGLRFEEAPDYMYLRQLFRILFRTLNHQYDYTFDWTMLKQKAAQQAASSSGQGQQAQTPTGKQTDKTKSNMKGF
UniProt P27037, sequence (whole entry, looked up): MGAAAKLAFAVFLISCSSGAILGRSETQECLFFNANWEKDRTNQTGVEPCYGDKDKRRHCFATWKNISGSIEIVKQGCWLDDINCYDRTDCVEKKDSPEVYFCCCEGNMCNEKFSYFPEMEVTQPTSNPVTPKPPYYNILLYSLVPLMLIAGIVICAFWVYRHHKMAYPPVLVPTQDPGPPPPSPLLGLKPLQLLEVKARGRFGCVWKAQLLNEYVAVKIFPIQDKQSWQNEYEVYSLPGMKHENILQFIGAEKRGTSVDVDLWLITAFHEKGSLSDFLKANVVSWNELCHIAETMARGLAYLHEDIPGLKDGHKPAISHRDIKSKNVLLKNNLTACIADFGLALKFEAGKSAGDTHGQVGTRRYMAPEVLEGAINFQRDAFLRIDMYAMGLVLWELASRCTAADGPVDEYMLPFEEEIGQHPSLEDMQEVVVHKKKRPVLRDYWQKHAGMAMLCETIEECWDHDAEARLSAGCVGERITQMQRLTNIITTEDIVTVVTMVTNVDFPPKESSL
UniProt Q8IVH8, sequence (whole entry, looked up): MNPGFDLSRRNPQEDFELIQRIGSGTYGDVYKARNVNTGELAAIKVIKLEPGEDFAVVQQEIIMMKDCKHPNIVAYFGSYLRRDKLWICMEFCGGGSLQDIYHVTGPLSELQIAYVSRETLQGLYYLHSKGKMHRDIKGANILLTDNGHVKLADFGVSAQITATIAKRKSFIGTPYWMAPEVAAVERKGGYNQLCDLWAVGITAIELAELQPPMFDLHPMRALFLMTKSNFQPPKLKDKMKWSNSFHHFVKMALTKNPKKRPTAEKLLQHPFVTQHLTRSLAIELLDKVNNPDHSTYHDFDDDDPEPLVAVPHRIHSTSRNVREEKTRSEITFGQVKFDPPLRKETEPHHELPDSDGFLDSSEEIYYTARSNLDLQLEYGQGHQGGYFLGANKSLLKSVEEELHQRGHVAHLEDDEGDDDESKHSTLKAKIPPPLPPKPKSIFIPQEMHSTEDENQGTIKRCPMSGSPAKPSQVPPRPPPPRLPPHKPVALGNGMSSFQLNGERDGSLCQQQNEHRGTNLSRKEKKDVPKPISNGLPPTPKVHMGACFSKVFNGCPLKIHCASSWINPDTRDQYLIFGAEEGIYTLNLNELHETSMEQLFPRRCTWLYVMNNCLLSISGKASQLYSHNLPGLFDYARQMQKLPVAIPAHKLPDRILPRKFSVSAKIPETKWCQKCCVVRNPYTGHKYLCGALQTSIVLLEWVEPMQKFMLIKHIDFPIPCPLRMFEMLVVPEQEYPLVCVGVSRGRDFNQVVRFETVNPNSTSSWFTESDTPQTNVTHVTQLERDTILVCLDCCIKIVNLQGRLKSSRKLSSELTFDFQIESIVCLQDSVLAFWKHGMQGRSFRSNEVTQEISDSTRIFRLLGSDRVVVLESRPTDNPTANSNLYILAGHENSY
UniProt P49841, sequence (whole entry, looked up): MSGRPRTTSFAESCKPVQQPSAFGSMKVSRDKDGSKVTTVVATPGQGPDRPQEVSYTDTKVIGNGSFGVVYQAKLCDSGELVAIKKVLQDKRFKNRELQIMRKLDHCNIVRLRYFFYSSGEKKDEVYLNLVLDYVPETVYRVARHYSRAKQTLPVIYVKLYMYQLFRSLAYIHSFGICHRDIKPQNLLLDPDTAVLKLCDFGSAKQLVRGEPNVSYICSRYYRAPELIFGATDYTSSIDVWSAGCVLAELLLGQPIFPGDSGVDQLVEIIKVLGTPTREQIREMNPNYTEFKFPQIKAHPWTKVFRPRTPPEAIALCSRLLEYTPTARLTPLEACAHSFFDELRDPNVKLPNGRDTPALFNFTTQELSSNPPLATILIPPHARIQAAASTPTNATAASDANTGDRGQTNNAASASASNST

Sample 1
Target: Protein max, full length (MAX, Homo sapiens, UniProt P61244-2, residues 1-151)
Method: protein-binding microarray
Form: double-stranded DNA, one strand shown
Matrix: in vitro
Tested at: not given
Notes: k-mer, scored over probes, only values ≥0.25
Reading: higher = stronger binding
| Oligonucleotide | E-score |
| --- | --- |
| GCGTACAC | 0.306 |
| GTGACAGA | 0.276 |
| CCGTGTGC | 0.299 |
| ACGCGGAT | 0.261 |
| AGCATGAG | 0.368 |
| CATGTCTC | 0.289 |
| GGCCACGA | 0.27 |
| ACATGTTA | 0.326 |

Sample 2
SMILES: CCS(=O)(=O)c1cc2cc(C[C@](O)(CC(C)(C)c3ccc(F)cc3C(N)=O)C(F)(F)F)[nH]c2cn1
Tested at: 1 µM
| target | test | remaining binding [%] |
| --- | --- | --- |
| CSNK1A1 (Homo sapiens, UniProt P48729) | cell-free assay, competition with immobilised ligand | 100 |
| GSK3B (Homo sapiens, UniProt P49841) | cell-free assay, competition with immobilised ligand | 100 |
| MAP4K3 (Homo sapiens, UniProt Q8IVH8) | cell-free assay, competition with immobilised ligand | 83 |
| FER (Homo sapiens, UniProt P16591) | cell-free assay, competition with immobilised ligand | 96 |
| ACVR2A (Homo sapiens, UniProt P27037) | cell-free assay, competition with immobilised ligand | 100 |
| GRK2 (Homo sapiens, UniProt P25098) | cell-free assay, competition with immobilised ligand | 84 |
| CDC42BPG (Homo sapiens, UniProt Q6DT37) | competition binding | 100 |
| FLT3 (Homo sapiens, UniProt P36888, D835H) | cell-free assay, competition with immobilised ligand | 100 |
| Tyrosine-protein kinase ABL1, phosphorylated (ABL1, Homo sapiens, UniProt P00519, M351T) | cell-free assay, competition with immobilised ligand | 94 |
| CDK13 (Homo sapiens, UniProt Q14004) | cell-free assay, competition with immobilised ligand | 100 |
| ANKK1 (Homo sapiens, UniProt Q8NFD2) | cell-free assay, competition with immobilised ligand | 89 |
| PKMYT1 (Homo sapiens, UniProt Q99640) | cell-free assay, competition with immobilised ligand | 100 |
| CDC42BPB (Homo sapiens, UniProt Q9Y5S2) | cell-free assay, competition with immobilised ligand | 100 |

Sample 3
Method: PRP chromatography estimate
Matrix: 1,9-decadiene/PBS
pH: 7.4
| SMILES | logD |
| --- | --- |
| CCOC(=O)[C@@H]1CSCC(=O)N[C@H](CC)C(=O)N(C)[C@@H](C)C(=O)N[C@H](CC(C)C)C(=O)N2CCC[C@@H]2C(=O)N(CC)CC(=O)N[C@@H](CC(C)C)C(=O)N(C)[C@@H](C)C(=O)N[C@@H](CC(C)C)C(=O)N1C | -0.341 |
| CC(C)C[C@@H]1NC(=O)[C@H](C)NC(=O)[C@H](Cc2cscn2)NC(=O)[C@H](C)NC(=O)[C@H](C(C)C)NC(=O)[C@H](CC(C)C)NC(=O)[C@@H](CC(C)C)NC1=O | -2.08 |
| CC(C)C[C@@H]1NC(=O)[C@H](C)NC(=O)[C@@H](CC(C)C)NC(=O)[C@H](C)NC(=O)[C@H](CC(C)C)NC(=O)[C@H](CC(C)C)NC(=O)[C@@H](CC(C)C)NC1=O | -0.109 |

Sample 4
Cell line: mouse MPNST tumor cells
Method: high-content immunofluorescence imaging
Item: nuclear SOX9
Tested at: 10 µM
Time: 12 h
Notes: mean of 2 replicates
Reference: DMSO control
Reading: higher = more nuclear SOX9
| SMILES | nuclear SOX9 intensity |
| --- | --- |
| Cc1ccc(Sc2cncc3sc(C(N)=O)cc23)cc1 | 151 % of DMSO |
| Cc1onc(C(=O)N2CCN(C(c3ccc(Cl)cc3)c3ccc(Cl)cc3)CC2)c1[N+](=O)[O-] | 169 % of DMSO |
| N#Cc1cccc(-c2c[nH]c3ncnc(N4CCOCC4)c23)c1 | 126 % of DMSO |

Single results of other studies
| SMILES | test system | conditions | measurement | value |
| --- | --- | --- | --- | --- |
| COCCNc1nc2c(c(=O)n(C)c(=O)n2C)n1CCOC | mouse, microsomes or S9 | 2 µM, 0.5 h | remaining compound | 67.5% |
